Measurements gathered from unrelated publications.
Lines come from different studies, so protocols differ. “And” joins repeats or separate records; there may be more than shown. ± gives the spread as reported.
Cell line: Caco-2

CC[C@H](C)[C@H](NC(=O)[C@@H](N)CC(N)=O)C(=O)N1CCC[C@H]1C(=O)N1CCC[C@H]1C(=O)N[C@@H](CC(C)C)C(=O)N[C@H](C(=O)N[C@@H](CCC(N)=O)C(=O)N[C@H](C(=O)N1CCC[C@H]1C(=O)N[C@H](C(=O)N[C@H](C(=O)N[C@H](C(=O)N1CCC[C@H]1C(=O)N1CCC[C@H]1C(=O)N[C@@H](Cc1ccccc1)C(=O)N[C@@H](CC(C)C)C(=O)N[C@@H](CCC(N)=O)C(=O)N1CCC[C@H]1C(=O)N[C@@H](CCC(=O)O)C(=O)O)C(C)C)C(C)C)C(C)C)[C@@H](C)O)[C@@H](C)O
recovery (10 µM, time not given, apical side): 93.4 to 101%

Cc1ncc2n1-c1ccc(Cl)cc1C(c1ccccc1F)=NC2
apparent permeability (Caco-2 barrier apical to basolateral): 207 nm/s

COc1nc(NCc2cn(-c3ccc(C(=O)Nc4ccccc4)cc3)nn2)nc(OC)n1
selectivity ratio (MTT; reference: normal rat colonocytes over Caco-2): 0.76

O=C(CCCN1CCC2(CC1)C(=O)NCN2c1ccccc1)N(CC1CCCCC1)c1ccccc1
recovery (Caco-2 permeability; time not given, basolateral to apical): 69%

C[n+]1ccc(-c2cc[n+](C)cc2)cc1
viability (concentration not given; reference: untreated control): 41.4% and 39.7% and 49.8% and 37.3% and 52.2%

CC(C)[C@H]1C(=O)N[C@@H](CCCN=C(N)N)C(=O)NCC(=O)N[C@@H](CC(=O)O)C(=O)N[C@H](Cc2ccccc2)C(=O)N1C
Papp A to B (200 µM): 0.96 nm/s

CC(C)CC(=O)OC[C@H]1O[C@@](C#N)(c2ccc3c(N)ncnn23)[C@H](O)[C@@H]1O
recovery (bidirectional permeability; 9 µM, 120 min; basolateral to apical): 99%

COc1ccc2cc3[n+](cc2c1OC)CCc1cc2c(cc1-3)OCO2.O.[Cl-]
efflux ratio (100 µg/mL, 2 h; reference: B-A over A-B): > 2

CCC[C@@](N)(CO)CCc1ccc(OCCCCCC(C)C)cc1
efflux ratio (2 µM): > 4.48

C[C@@H](NC(=O)[C@@H](C)NC(=O)[C@H](CCCCNC(=O)c1ccc(NC(=O)CCl)cc1)NC(=O)c1ccc(NC(=O)CCl)cc1)C(=O)O
efflux ratio (10 µM; reference: B-A over A-B): 1.29

C[C@@H]1O[C@@H](OC[C@H]2O[C@@H](Oc3c(-c4ccc(O)c(O)c4)oc4cc(O)cc(O)c4c3=O)[C@H](O)[C@@H](O)[C@@H]2O)[C@H](O)[C@H](O)[C@H]1O
viability (CCK-8; 2.5 µM, 24 h): 107%

C/C=C1/CN2CC[C@]34C(=C(C(=O)OC)[C@H]1C[C@H]23)Nc1ccccc14
Papp (10 µM, 2 h, pH 7.4): > 50 nm/s

NC(=O)CC[C@H](NC(=O)[C@@H]1CCCN1C(=O)[C@H](CCC(N)=O)NC(=O)[C@@H]1CCCN1C(=O)[C@@H](N)Cc1ccc(O)cc1)C(=O)O
viability (CCK-8; 25 µM): 92.1%

O=c1c(O[C@@H]2O[C@H](CO)[C@H](O)[C@H](O)[C@H]2O)c(-c2ccc(O)c(O)c2)oc2cc(O)cc(O)c12
viability (CCK-8; 10 µM, 24 h): 92.1%

CC(C)NCC(O)COc1cccc2ccccc12 (stereo not shown)
apparent permeability A-B (human plasma; pH 7.4, not binding-corrected): 105 nm/s

C[C@]12CC[C@H]3[C@@H](CCC4=CC(=O)CC[C@@]43C)[C@@H]1CC[C@@H]2O
mass balance (60 min, basolateral to apical): 94.2 ± 3.6%

CC(C)C[C@H](NC(=O)OCc1ccccc1)C(=O)N[C@@H](CC(C)C)C(=O)N[C@@H](CC1CCNC1=O)C(=O)C(=O)NC1CC1 (stereo partly shown)
CC50 (5 (unit not given)): 140 ± 14.4 µM

C/C=C1/CN2CC[C@@]34c5cc(O)ccc5N(C)[C@]35OC[C@@]4(C(=O)OC)[C@H]1C[C@H]25
Papp (10 µM, 2 h, pH 7.4): > 50 nm/s

O=c1cc(-c2ccc(O)cc2)oc2c([C@@H]3O[C@H](CO)[C@@H](O)[C@H](O)[C@H]3O)c(O)cc(O)c12
viability (CCK-8; 5 µM, 24 h): 122%

Some of these lines once more:
CC(C)CC(=O)OC[C@H]1O[C@@](C#N)(c2ccc3c(N)ncnn23)[C@H](O)[C@@H]1O
recovery (bidirectional permeability; 9 µM, 120 min; basolateral to apical): 99%

NC(=O)CC[C@H](NC(=O)[C@@H]1CCCN1C(=O)[C@H](CCC(N)=O)NC(=O)[C@@H]1CCCN1C(=O)[C@@H](N)Cc1ccc(O)cc1)C(=O)O
viability (CCK-8; 25 µM): 92.1%
